Measurements gathered from unrelated publications.
Protocols differ between the studies behind these lines. Values joined by “and” are separate records of one study, mostly repeats; a detail may differ. ± gives the spread as reported.
UniProt P33913, sequence (whole entry, unmodified, looked up): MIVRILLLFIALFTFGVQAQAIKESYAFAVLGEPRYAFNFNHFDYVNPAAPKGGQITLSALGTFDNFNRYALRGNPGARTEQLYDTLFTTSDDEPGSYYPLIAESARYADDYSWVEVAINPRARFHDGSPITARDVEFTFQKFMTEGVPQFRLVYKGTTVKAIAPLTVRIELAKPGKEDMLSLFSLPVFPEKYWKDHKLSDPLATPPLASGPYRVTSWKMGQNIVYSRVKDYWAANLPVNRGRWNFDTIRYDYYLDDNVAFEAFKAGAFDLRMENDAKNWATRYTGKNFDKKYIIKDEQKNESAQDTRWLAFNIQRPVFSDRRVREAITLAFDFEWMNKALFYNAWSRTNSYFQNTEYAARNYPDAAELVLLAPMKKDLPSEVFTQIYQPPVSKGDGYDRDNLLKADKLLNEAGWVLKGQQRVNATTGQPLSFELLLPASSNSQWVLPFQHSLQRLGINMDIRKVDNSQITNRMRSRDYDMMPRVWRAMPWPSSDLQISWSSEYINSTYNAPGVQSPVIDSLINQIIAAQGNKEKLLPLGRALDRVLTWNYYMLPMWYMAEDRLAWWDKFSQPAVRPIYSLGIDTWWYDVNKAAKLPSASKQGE
UniProt A0A0D1DWZ5, sequence (whole entry, looked up): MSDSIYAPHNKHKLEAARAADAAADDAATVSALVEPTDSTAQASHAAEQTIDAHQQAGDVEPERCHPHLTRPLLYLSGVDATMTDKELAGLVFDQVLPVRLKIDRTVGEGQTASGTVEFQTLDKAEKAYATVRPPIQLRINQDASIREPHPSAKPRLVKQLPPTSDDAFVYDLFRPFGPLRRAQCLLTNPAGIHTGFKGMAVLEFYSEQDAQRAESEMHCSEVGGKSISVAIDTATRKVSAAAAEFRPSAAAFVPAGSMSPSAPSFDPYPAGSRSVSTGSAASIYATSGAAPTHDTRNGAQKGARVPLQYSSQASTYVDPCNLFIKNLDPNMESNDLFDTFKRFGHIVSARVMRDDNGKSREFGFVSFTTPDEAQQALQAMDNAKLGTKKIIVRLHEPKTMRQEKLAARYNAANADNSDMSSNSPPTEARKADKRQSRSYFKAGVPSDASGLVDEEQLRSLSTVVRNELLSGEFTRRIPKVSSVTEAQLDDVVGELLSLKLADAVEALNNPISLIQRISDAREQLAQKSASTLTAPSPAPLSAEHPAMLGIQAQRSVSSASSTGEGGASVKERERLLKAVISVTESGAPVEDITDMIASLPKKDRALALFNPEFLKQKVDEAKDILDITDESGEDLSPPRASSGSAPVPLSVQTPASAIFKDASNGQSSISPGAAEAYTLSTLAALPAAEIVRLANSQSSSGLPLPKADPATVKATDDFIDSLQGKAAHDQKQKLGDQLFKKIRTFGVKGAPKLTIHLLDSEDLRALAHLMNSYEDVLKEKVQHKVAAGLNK
UniProt P31946, sequence (whole entry, looked up): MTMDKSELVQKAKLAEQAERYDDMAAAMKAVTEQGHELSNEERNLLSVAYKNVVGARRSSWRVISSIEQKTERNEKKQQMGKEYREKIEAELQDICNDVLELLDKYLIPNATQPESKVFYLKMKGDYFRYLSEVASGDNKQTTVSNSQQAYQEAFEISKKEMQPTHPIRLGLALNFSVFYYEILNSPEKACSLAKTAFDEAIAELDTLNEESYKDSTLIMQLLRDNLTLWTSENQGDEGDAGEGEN
UniProt Q9HB29, sequence (whole entry, looked up): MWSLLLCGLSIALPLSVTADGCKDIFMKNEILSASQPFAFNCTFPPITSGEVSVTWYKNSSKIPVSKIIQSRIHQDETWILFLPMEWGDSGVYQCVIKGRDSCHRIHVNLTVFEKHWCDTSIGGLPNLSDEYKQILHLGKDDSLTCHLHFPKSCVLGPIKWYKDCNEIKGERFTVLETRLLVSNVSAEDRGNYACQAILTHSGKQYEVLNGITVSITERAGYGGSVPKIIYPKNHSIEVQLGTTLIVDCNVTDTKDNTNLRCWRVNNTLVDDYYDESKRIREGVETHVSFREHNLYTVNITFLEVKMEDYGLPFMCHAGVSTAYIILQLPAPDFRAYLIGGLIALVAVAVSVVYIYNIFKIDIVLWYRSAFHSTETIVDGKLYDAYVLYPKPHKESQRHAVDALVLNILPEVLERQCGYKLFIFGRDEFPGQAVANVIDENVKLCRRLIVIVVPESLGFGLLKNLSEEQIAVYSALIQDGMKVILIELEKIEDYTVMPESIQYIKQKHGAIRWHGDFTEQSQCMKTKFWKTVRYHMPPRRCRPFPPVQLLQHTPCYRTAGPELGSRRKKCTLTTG
UniProt P43220, sequence (whole entry, looked up): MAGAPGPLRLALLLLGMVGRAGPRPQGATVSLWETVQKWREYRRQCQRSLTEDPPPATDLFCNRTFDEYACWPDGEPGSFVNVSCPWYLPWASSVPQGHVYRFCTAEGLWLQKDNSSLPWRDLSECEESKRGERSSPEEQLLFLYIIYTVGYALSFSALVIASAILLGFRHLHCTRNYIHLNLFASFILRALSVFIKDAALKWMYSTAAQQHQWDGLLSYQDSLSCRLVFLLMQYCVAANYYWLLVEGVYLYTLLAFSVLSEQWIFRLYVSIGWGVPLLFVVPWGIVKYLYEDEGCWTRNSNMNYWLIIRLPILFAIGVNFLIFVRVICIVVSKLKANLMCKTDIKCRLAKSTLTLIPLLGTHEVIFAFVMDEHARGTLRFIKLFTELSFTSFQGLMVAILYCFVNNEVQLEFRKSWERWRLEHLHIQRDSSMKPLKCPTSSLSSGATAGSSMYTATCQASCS
UniProt Q96NY8, sequence (whole entry, looked up): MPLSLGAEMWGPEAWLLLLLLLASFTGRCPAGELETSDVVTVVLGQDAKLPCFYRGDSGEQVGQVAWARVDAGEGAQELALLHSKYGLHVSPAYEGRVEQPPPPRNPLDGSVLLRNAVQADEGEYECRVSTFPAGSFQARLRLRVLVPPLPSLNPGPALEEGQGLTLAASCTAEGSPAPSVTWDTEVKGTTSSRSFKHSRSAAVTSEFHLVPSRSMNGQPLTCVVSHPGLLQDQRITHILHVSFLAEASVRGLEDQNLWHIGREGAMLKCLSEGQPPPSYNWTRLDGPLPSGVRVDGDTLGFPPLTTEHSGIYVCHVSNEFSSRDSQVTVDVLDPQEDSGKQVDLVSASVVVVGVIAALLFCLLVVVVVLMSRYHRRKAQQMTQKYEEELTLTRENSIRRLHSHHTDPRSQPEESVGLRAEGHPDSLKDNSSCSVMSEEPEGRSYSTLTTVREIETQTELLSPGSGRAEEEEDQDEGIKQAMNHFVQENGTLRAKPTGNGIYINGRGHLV
UniProt P42684, sequence (whole entry, looked up): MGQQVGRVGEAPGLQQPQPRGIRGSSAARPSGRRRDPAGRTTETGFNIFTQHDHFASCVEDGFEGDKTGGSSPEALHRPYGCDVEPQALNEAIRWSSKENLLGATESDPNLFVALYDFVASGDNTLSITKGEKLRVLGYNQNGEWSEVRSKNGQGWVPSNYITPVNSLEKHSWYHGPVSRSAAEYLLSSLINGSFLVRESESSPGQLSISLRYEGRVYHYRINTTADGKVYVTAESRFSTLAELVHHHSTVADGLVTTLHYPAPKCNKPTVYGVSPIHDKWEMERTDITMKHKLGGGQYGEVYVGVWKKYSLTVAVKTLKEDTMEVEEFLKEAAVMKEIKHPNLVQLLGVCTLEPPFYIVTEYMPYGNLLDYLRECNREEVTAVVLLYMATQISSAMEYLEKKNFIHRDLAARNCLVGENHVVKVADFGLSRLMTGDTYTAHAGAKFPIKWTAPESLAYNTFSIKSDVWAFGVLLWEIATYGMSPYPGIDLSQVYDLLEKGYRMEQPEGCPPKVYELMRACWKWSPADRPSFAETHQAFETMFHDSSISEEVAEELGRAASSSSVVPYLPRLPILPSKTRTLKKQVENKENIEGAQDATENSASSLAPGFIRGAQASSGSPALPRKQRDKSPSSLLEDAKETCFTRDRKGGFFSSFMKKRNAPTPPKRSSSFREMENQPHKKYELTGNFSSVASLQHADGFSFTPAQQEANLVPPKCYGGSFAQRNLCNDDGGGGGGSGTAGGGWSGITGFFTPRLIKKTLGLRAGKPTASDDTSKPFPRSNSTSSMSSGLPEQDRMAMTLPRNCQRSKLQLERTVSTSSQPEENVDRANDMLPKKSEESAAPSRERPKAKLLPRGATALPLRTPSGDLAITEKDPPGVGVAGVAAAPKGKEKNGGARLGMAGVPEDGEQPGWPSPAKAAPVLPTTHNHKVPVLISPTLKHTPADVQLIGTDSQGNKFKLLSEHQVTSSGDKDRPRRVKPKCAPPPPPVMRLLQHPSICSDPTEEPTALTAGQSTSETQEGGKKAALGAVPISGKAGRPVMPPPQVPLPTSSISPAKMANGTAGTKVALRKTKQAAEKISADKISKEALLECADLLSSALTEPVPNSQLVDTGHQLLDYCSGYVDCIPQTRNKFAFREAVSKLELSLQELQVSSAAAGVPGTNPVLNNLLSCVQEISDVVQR
UniProt Q15046, sequence (whole entry, looked up): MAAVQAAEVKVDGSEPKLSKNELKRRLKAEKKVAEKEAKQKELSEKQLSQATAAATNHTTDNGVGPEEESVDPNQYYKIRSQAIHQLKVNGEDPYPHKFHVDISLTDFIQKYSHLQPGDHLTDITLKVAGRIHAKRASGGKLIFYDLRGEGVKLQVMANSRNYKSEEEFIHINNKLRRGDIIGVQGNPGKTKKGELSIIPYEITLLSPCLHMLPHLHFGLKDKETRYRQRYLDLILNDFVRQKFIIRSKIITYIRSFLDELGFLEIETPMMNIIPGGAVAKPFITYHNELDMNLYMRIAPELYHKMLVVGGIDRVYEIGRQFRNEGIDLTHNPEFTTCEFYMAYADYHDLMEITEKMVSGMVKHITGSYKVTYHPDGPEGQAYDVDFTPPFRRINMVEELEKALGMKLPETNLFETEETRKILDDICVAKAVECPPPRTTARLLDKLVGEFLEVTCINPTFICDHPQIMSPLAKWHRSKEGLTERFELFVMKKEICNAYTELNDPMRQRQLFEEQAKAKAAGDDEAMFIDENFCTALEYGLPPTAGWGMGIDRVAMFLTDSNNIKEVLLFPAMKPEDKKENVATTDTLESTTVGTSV

C[C@]12C(c3cccnc3)=C[C@H]3[C@@H](CCC4=C[C@H](O)CC[C@@]43C)[C@@H]1CC[C@@H]2O  Kd (7-alpha-hydroxycholest-4-en-3-one 12-alpha-hydroxylase (Homo sapiens, UniProt Q9UNU6, W281F); binding, spectral titration): 6750 nM
CC[C@H](C)[C@H](NC(=O)[C@H](Cc1ccccc1)NC(=O)[C@H](CCC(=O)O)NC(=O)[C@H](CCCNC(=N)N)NC(=O)[C@@H](NC(=O)[C@H](C)NC(=O)[C@H](CCC(=O)O)NC(=O)[C@H](CCC(=O)O)NC(=O)[C@H](CCC(=O)O)NC(=O)[C@H](CC(C)C)NC(=O)[C@H](Cc1ccc(O)cc1)NC(=O)[C@H](CCCCN)NC(=O)[C@H](CO)NC(=O)[C@H](CC(C)C)NC(=O)[C@H](CC(=O)O)NC(=O)[C@H](CO)NC(=O)[C@@H](NC(=O)[C@H](Cc1ccccc1)NC(=O)[C@@H](NC(=O)CNC(=O)[C@H](CCC(N)=O)NC(=O)[C@@H](CO)NC(=O)[C@@H](N)Cc1c[nH]cn1)[C@@H](C)O)[C@@H](C)O)C(C)C)C(=O)N[C@@H](C)C(=O)N[C@@H](Cc1c[nH]c2ccccc12)C(=O)N[C@@H](CC(C)C)C(=O)N[C@@H](CCCCN)C(=O)N[C@@H](CC(N)=O)C(=O)NCC(=O)NCC(=O)N1CCC[C@H]1C(=O)N[C@@H](CO)C(=O)N[C@@H](Cc1ccc(O)cc1)C(=O)N[C@@H](CO)C(=O)N[C@@H](CCSC)C(=O)N[C@@H](CCC(=O)O)C(=O)N[C@@H](Cc1c[nH]cn1)C(=O)N[C@@H](Cc1ccccc1)C(=O)N[C@@H](CCCNC(=N)N)C(=O)N[C@@H](Cc1c[nH]c2ccccc12)C(=O)NCC(=O)N[C@@H](CCCCN)C(=O)N1CCC[C@H]1C(=O)N[C@H](C(N)=O)C(C)C  Kd (GLP1R (Homo sapiens, UniProt P43220); ligand displacement): 9.9 nM
O=C1NC2(CC2)COc2ncc(F)cc2[C@H]2COCCN2c2ccn3ncc1c3n2  alanine aminotransferase activity (Sprague-Dawley rat, male, serum; oral, 20 mg/kg/day, 4 weeks daily, end of recovery period): 37.2 ± 13.7 U/L
CCCc1cc2cc(-n3c4c(c5ccccc53)C(=O)CC(C)(C)C4)cc(N3CCC(O)CC3)c2c(=O)[nH]1  Kd (HSP90AB1 (Homo sapiens, UniProt P08238); fluorescence polarization; 24 h, 4 °C, with: FITC-geldanamycin tracer): 5720 nM
CC(C)[C@H](NC(=O)[C@H](Cc1ccccc1)NC(=O)[C@H](CC(=O)O)NC(=O)[C@H](CC(=O)O)NC(=O)[C@H](CCC(N)=O)NC(=O)[C@H](CC(=O)O)NC(=O)[C@H](CCC(=O)O)NC(=O)[C@H](CCC(=O)O)NC(=O)[C@H](CCC(N)=O)NC(=O)[C@H](CC(=O)O)NC(=O)[C@H](C)NC(=O)[C@H](C)NC(=O)[C@@H](N)CCC(=O)O)C(=O)N[C@@H](Cc1ccc(O)cc1)C(=O)N1CCC[C@H]1C(=O)NCC(=O)N[C@@H](C)C(=O)N[C@@H](CC(=O)O)C(=O)O  Kd (RNA-binding protein RRM4 (RRM4, Mycosarcoma maydis, UniProt A0A0D1DWZ5); binding, isothermal titration calorimetry; Ustilago maydis; pH 8.0, 25 °C, with: MLLE domain 100 µM): 15800 nM
CC[C@H](C)[C@@H]1NC(=O)[C@@H](C)NC(=O)[C@H](CCC(=O)N[C@@H](CCCCN)C(N)=O)NC(=O)[C@@H](C)NC(=O)[C@@H](C)NC(=O)[C@H](Cc2c[nH]c3ccccc23)NC(=O)[C@H](Cc2ccc(O)cc2)NC(=O)[C@H](CCCNC(=N)N)NC(=O)[C@H](Cc2ccc(F)cc2)NC1=O  Kd (Lysine--tRNA ligase (KARS1, Homo sapiens, UniProt Q15046); binding): 400 nM
CCCC[C@H](N)C(=O)N[C@H]1CSCCCCCCCCCCSC[C@@H](C(=O)N[C@H](C(N)=O)[C@@H](C)O)NC(=O)[C@H](CCCCN)NC(=O)[C@H](CCCCN)NC(=O)[C@H](CCCCN)NC(=O)[C@H](Cc2ccc(O)cc2)NC(=O)[C@H](CC(N)=O)NC(=O)[C@H](CC(C)C)NC1=O  Kd (GTPase KRas, GMPPNP-bound (KRAS, Homo sapiens, UniProt P01116, C118S/G12V); binding, biolayer interferometry; pH 7.4, 25 °C, GMPPNP-bound form): 80000 nM
CSCC[C@H](NC(=O)CNC(=O)[C@H](CCCNC(=N)N)NC(=O)[C@H](C)NC(=O)[C@@H](NC(=O)[C@H](CCC(N)=O)NC(=O)[C@H](Cc1ccc(OP(=O)(O)O)cc1)NC(=O)[C@H](C)NC(=O)[C@H](CS)NC(=O)[C@H](CO)NC(=O)[C@@H](NC(=O)[C@H](CC(C)C)NC(=O)[C@H](CC(=O)O)NC(=O)[C@H](CCCCN)NC(=O)[C@H](CO)NC(=O)[C@H](CO)NC(=O)c1ccc2c(c1)C(=O)OC21c2ccc(N(C)C)cc2Oc2cc(N(C)C)ccc21)C(C)C)C(C)C)C(=O)N[C@@H](CCC(=O)O)C(=O)N[C@@H](CC(=O)O)C(=O)O  Kd (Tyrosine-protein kinase SYK, SH2 domains (SYK, Homo sapiens, UniProt P43405); binding): 909 nM
Nc1ncnc2c1ncn2[C@@H]1O[C@H](C[C@@H](N)CC[C@H](N)C(=O)O)[C@@H](O)[C@H]1O  Kd (O-methyltransferase (Sorghum bicolor, UniProt A0A1B6PFV1, W279A); isothermal titration calorimetry; APO): 884 ± 61.6 nM
CC[C@H](C)[C@H](NC(=O)[C@H](CCC(=O)O)NC(=O)[C@H](C)NC(=O)[C@H](CCCCN)NC(=O)[C@H](CC(C)C)NC(=O)[C@@H](NC(=O)[C@H](CCC(=O)O)NC(=O)[C@@H](NC(=O)[C@H](CCC(=O)O)NC(=O)[C@H](CC(=O)O)NC(=O)[C@H](C)NC(=O)[C@@H](NC(=O)[C@@H](NC(=O)[C@H](C)NC(=O)[C@H](C)NC(C)=O)C(C)C)[C@@H](C)O)[C@@H](C)O)C(C)C)C(=O)N[C@H]1CSCc2cccc(c2)CSC[C@@H](C(=O)N[C@@H](CCC(N)=O)C(=O)N[C@H](C(=O)N[C@@H](CCC(N)=O)C(=O)N[C@@H](CCC(=O)O)C(=O)N[C@@H](CCC(=O)O)C(=O)N[C@@H](CC(=O)O)C(=O)N2CCC[C@H]2C(=O)N[C@@H](CC(N)=O)C(=O)NCCC(=O)N[C@@H](CCCCNC(=O)CCCC[C@@H]2SC[C@@H]3NC(=O)N[C@@H]32)C(N)=O)C(C)C)NC(=O)[C@H](C(C)C)NC(=O)[C@H](C)NC(=O)[C@H](CCCCN)NC1=O  Kd (Myc proto-oncogene protein, bHLH-LZ region (MYC, Homo sapiens, UniProt P01106); binding, biolayer interferometry): 176 nM
CC(C)C[C@H](NC(=O)[C@H](CCCNC(=N)N)NC(=O)[C@H](CO)NC(=O)[C@H](CC(N)=O)NC(=O)c1ccc2c(c1)C(=O)OC21c2ccc(N(C)C)cc2Oc2cc(N(C)C)ccc21)C(=O)NCC(=O)N[C@@H](CC(N)=O)C(=O)NCC(=O)N[C@H](C(=O)N[C@@H](CC(C)C)C(=O)N[C@@H](Cc1ccc(OP(=O)(O)O)cc1)C(=O)N[C@@H](C)C(=O)N[C@@H](CO)C(=O)N[C@H](C(=O)N[C@@H](CC(N)=O)C(=O)N1CCC[C@H]1C(=O)N[C@@H](CCC(=O)O)C(=O)N[C@@H](Cc1ccc(O)cc1)C(=O)N[C@@H](CC(=O)O)C(=O)O)C(C)C)C(C)C  Kd (Tyrosine-protein kinase ABL2, SH2 domain (ABL2, Homo sapiens, UniProt P42684); binding): 48 nM
CCCC[C@@H]1NC(=O)[C@H](Cc2ccc(O)cc2)NC(=O)[C@@H]2CCCN2C(=O)[C@H](CC(=O)O)NC(=O)[C@H](C)NC(=O)[C@H](Cc2ccccc2)NC(=O)[C@@H]2CSCCC(=O)N3CN(CN(C3)C(=O)CCSC[C@@H](C(=O)N[C@@H](C)C(N)=O)NC1=O)C(=O)CCSC[C@H](NC(C)=O)C(=O)N[C@@H](CC(C)(C)C)C(=O)N1CCC[C@H]1C(=O)N[C@@H](CCC(=O)O)C(=O)N[C@H](CCCCNC(=O)CCc1cn(CCOCCOCCOCCN(CCOCCOCCOCCC(=O)N[C@H]3CSCCC(=O)N4CN5CN(C4)C(=O)CCSC[C@H](NC(=O)[C@@H](CC(=O)O)NC(=O)[C@H](Cc4cccc6ccccc46)NC(=O)[C@@H]4CCCN4C3=O)C(=O)N[C@@H](CCSC)C(=O)N[C@@H](CCCCNC(=N)N)C(=O)N[C@@H](CC(=O)O)C(=O)N[C@@H](Cc3c[nH]c4ccccc34)C(=O)N[C@@H](CO)C(=O)N[C@@H]([C@@H](C)O)C(=O)N3CCC[C@H]3C(=O)N3C[C@H](O)C[C@H]3C(=O)N[C@@H](Cc3c[nH]c4ccccc34)C(=O)N[C@H](C(N)=O)CSCCC5=O)CCOCCOCCOCCn3cc(CCC(=O)NCCCC[C@H]4NC(=O)[C@H](CCC(=O)O)NC(=O)[C@@H]5CCCN5C(=O)[C@H](CC(C)(C)C)NC(=O)[C@@H](NC(C)=O)CSCCC(=O)N5CN6CN(C5)C(=O)CCSC[C@H](NC(=O)[C@H](Cc5ccc(O)cc5)NC(=O)[C@@H]5CCCN5C4=O)C(=O)N[C@@H](Cc4ccccc4)C(=O)N[C@@H](C)C(=O)N[C@@H](CC(=O)O)C(=O)N4CCC[C@H]4C(=O)N[C@@H](Cc4ccc(O)cc4)C(=O)N[C@@H](CCCC)C(=O)N[C@H](C(=O)N[C@@H](C)C(N)=O)CSCCC6=O)nn3)nn1)C(=O)N1CCC[C@H]1C(=O)N[C@@H](Cc1ccc(O)cc1)C(=O)N2  Kd (Nectin-4 (Homo sapiens, UniProt Q96NY8); binding, SPR): 5.1 nM
N[C@@H](Cc1ccccc1)P(=O)(O)O  Kd (PAL1 (Petroselinum crispum, UniProt P24481, Y110F); ITC): 8900 nM
CCCc1cc2cc(-n3nc(CCC)c4c3CC(C)(C)CC4=O)cc(N3CCC(O)CC3)c2c(=O)[nH]1  Kd (HSP90AA1 (Homo sapiens, UniProt P07900); fluorescence polarization; 24 h, 4 °C, with: FITC-geldanamycin tracer): > 100000 nM
CC(C)C[C@H](NC(=O)[C@H](CCCNC(=N)N)NC(=O)[C@H](CC(C)C)NC(=O)[C@H](CO)NC(=S)Nc1ccc2c(c1)C(=O)OC21c2ccc(O)cc2Oc2cc(O)ccc21)C(=O)N[C@@H](CCCCN)C(=O)N[C@@H](CS)C(=O)NCC(=O)N[C@@H](CCP(=O)(O)O)C(=O)NCC(=O)N1CCC[C@H]1C(=O)N[C@H](C(=O)N[C@@H](Cc1c[nH]c2ccccc12)C(=O)N[C@@H](CC(C)C)C(=O)N[C@H](C(=O)N1CCC[C@H]1C(=O)N[C@@H](CCCNC(=N)N)C(=O)O)C(C)C)C(C)C  Kd (14-3-3 protein beta/alpha (Homo sapiens, UniProt P31946); binding, fluorescence anisotropy; pH 7.5, FITC-labelled phosphopeptide titration): 39600 nM
CC(C)[C@@H]1NC(=O)[C@H](Cc2ccccc2)NC(=O)CSC[C@@H](C(N)=O)NC(=O)[C@H](CCC(=O)O)NC(=O)[C@H](CO)NC(=O)[C@H](Cc2c[nH]c3ccccc23)NC(=O)[C@H](C2CCCCC2)NC(=O)[C@H](C(C)C)NC(=O)[C@H](Cc2ccc(O)cc2)NC(=O)[C@H](CC(=O)O)NC(=O)[C@H](Cc2c[nH]c3ccccc23)NC(=O)[C@H](Cc2ccc(O)cc2)NC(=O)[C@H](Cc2c[nH]c3ccccc23)NC(=O)[C@H](CCC(=O)O)NC1=O  Kd (Interleukin-1 receptor-like 2, D1-D2 domains (IL1RL2, Homo sapiens, UniProt Q9HB29); SPR; IL-36R domains D1-D2): 72 ± 16 nM
CSCC[C@H](NC=O)C(=O)N[C@@H](CCCNC(=N)N)C(=O)N[C@H](C(=O)NCC(=O)N[C@@H](CC(N)=O)C(=O)N[C@@H](C)C(=O)N[C@@H](CC(N)=O)C(=O)NCC(=O)NCC(=O)N[C@@H](CCCCNC(=S)Nc1ccc2c(c1)C(=O)OC21c2ccc(O)cc2Oc2cc(O)ccc21)C(=O)O)[C@@H](C)O  Kd (Uncharacterized protein YejA (yejA, Escherichia coli, UniProt P33913, S499A); binding, fluorescence polarisation; YejA variant S481A): 490 nM and ~490 nM
